Experimental data gathered from unrelated publications.
A part holds a random share of what one study measured.

Sample 1 — technique: protein binding microarray; form: double-stranded DNA, one strand shown; medium: in vitro; tested at: not given; baseline: not given; direction: higher = stronger binding; measurement: E-score
Target: Histone acetyltransferase KAT6A, winged helix 1, GST fusion (KAT6A, Homo sapiens, UniProt Q92794, residues 1-85)
Notes: 8-mer, flanks averaged, mean of 2 arrays, mostly near background
Target sequence (chain): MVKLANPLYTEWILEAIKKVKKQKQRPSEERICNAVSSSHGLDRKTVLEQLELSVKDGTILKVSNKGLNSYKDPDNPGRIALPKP
CGGCAATA: 0.243
CCCTTACG: 0.0807
ATTCAGGG: -0.0843
CCACCCCC: -0.0195

Sample 2 — technique: protein-binding microarray; form: double-stranded DNA, one strand shown; medium: in vitro; tested at: not given; direction: higher = stronger binding; measurement: E-score
Target: Transcription factor Sp1 (SP1, Homo sapiens, UniProt P08047, residues 1-785, full length assumed)
UniProt P08047, sequence (whole entry, looked up): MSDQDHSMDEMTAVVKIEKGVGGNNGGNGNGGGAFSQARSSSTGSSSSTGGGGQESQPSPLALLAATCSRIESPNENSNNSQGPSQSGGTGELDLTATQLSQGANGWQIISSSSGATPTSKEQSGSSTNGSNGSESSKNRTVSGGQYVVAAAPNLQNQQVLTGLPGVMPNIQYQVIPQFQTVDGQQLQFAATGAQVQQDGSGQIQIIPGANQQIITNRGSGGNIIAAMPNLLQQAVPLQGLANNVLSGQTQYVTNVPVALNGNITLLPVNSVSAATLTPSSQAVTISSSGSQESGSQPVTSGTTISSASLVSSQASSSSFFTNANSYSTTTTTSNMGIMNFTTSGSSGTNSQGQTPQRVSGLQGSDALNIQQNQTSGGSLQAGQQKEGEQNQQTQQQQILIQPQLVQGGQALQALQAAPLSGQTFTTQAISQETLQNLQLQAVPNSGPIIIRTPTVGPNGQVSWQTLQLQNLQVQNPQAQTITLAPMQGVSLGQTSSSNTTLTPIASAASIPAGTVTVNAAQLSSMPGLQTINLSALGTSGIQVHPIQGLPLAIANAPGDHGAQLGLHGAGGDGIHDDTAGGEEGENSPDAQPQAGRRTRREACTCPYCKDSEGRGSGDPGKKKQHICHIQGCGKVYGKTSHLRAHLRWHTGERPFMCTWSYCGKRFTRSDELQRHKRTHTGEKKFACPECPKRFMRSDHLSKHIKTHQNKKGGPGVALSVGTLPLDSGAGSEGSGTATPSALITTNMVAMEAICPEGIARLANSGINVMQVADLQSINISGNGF
Notes: k-mer, scored over probes, only values ≥0.25
GCCCCGCC: 0.493
AGGGGTAG: 0.319
AAGGGGGC: 0.318
ACGTGTAT: 0.292
ACCCCGCC: 0.487

Sample 3 — technique: RNA Bind-n-Seq; form: RNA; medium: in vitro; tested at: not given; notes: RNA with constant flanks, ends assumed; baseline: input RNA pool; direction: higher = stronger binding; measurement: bound/input enrichment
Target: RING finger protein unkempt homolog, zinc fingers 1-6, GST-SBP tag (UNK, Homo sapiens, UniProt Q9C0B0, residues 30-357)
UniProt Q9C0B0, sequence (30-357, looked up): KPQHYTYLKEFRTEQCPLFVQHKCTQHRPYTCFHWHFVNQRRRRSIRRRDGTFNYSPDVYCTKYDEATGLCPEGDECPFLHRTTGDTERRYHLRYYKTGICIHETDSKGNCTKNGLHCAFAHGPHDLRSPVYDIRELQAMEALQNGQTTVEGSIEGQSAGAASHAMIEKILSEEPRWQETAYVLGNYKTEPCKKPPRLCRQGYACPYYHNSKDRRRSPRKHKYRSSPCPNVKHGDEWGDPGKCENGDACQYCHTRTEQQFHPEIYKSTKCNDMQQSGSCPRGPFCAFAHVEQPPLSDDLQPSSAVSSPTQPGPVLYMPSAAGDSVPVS
GGGAGUUCUACAGUCCGACGAUCAGGAUUAACAAUGGACAACACAAAGCCCAGUCUUACUAUUUAUAUGUACAGUAUUUGGUGACCGAGAGCAAAGGAAAAACACAUCAGAACAGUUGCCUUAACACUGAAAAACAUACCCUGCAACAGAGGAUUGAGCAUCA: 0.141 ratio
GGGAGUUCUACAGUCCGACGAUCCAGAGCAGGGAGGAUAGUGACCCUGAGUACCGGGCCAGCAAGUCCAAGCCACUGACCCUACCCGAAUACAACCUUACUAUGGAUACCGCAAAAUUAUUCAUGUCCUGUCUCCACGCCUGGCAACAGAGGAUUGAGCAUCA: 0.136 ratio
GGGAGUUCUACAGUCCGACGAUCGAAAAAUUUGAAAUGUUUUUGGUUCACUAGUACAAUGUUUGGUUUUAUUCCUAAAGUAAACCGCUAUCUAAGAGAGGGCAUUUUCACUUUUUUUUUUUUAAAUUUUGAGACAGGCUCUCACAACAGAGGAUUGAGCAUCA: 0.965 ratio
GGGAGUUCUACAGUCCGACGAUCUUUUCUUUCUUUCUUAGCUGUUAGCUGAGAGGAAGUCUCUGAACAGGCGGCAGCGGCUCUUACCGUGCAACCAUGGCAGACUAUUCAACAGUGCCUCCCCCCUCUUCUGGCUCAGCUGGUCAACAGAGGAUUGAGCAUCA: 0.19 ratio

Mixed results
PhoQ, residues 284 288 289 292 302 303 SACGEM  fold induction (PhoP, residues 12 14 15 18 19 TPWLV (Escherichia coli, UniProt P23836); Sort-seq, refers to: YFP reporter; E. coli; PhoQ-PhoP variant library, with: 10 µM Mg2+; baseline: high Mg2+ state, higher = stronger signaling): 2.99
